# Experimental data collected from several papers.
# Target: Cytochrome P450 1A2 (CYP1A2, Homo sapiens, UniProt P05177)
# UniProt P05177, sequence (whole entry, looked up): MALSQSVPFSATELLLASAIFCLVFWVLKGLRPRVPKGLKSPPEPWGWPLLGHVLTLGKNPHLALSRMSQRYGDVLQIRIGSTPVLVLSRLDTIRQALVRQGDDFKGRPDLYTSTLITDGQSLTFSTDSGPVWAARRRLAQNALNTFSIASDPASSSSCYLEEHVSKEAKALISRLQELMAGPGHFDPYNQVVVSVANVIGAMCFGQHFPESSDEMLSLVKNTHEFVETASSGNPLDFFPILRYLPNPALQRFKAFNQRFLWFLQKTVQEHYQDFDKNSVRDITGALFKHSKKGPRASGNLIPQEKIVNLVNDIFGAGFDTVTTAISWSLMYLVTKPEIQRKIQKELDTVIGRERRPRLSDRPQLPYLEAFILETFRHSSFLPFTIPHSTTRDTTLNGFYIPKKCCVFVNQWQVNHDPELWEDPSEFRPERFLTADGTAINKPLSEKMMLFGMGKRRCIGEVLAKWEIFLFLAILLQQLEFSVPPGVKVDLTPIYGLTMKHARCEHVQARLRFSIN
# Effect on: enzyme activity
# Mode: inhibitor
SMILES,test,system,conditions,IC50 [µM]
C[C@](C(=O)NC1CCC(F)(F)CC1)(c1cncnc1)N(C(=O)[C@H](F)Cl)c1ccc(OC(F)(F)F)cc1,,,10 (unit not given),> 50
CCC(=O)N(C)c1ccc(Cl)c(Cl)c1,,,5 min,> 25
O=C(NC1CCC(F)(F)CC1)C(c1cncnc1)N(C(=O)C(F)Cl)c1ccc(-c2cncs2)cc1 (centres unmarked),,,10 (unit not given),24.3
COc1c(C(=O)/C=C/c2ccc(F)cc2)c(O)c(OC)c2occc12,,,"15 min, pH 7.4",> 10
O=C(O)c1ccc(/C=C2\SC(=S)N(Cc3cccc(C(F)(F)F)c3)C2=O)cc1,,"human, liver microsomes",,18.9
NC(=O)c1c(F)ccc(OCc2nc3cc(Cl)cnc3s2)c1F,fluorescence,,,> 33.7
CC1CCC2(OC1)OC1CC3C4CC=C5CC(OC6OC(CO)C(OC7OC(CO)C(O)C7O)C(O)C6OC6OC(C)C(O)C(O)C6O)CCC5(C)C4CCC3(C)C1(O)C2C (centres unmarked),,"human, liver microsomes","1 h, pH 7.4",6.44
C[C@@H](c1ccn(Cc2ccc(Cl)cc2Cl)n1)[C@](O)(Cn1cnnn1)c1ccc(F)cc1F,,"human, liver microsomes",,> 100
COc1ccc2c(c1OCc1ccccc1)C[C@@H](C(=O)O)N(c1nc3ccc(C#N)cc3o1)C2,,"human, liver microsomes","15 min, pH 7.4",> 50
Cc1c(NC(=O)c2ccc3c(c2)CC[C@@H]2C[C@@](O)(C(F)(F)F)CC[C@@]32Cc2ccccc2)ccc[n+]1[O-],,,,> 100
COC(=O)c1ccc2c(c1)NC(=O)/C2=C(\Nc1ccc2c(c1)CCN2C(=O)CN1CCOCC1)c1ccccc1,,"human, liver microsomes",10 min,> 80
Cc1cc(/C=C/C#N)cc(C)c1Oc1nc(NC2CCN(Cc3ccc(S(C)(=O)=O)cc3)CC2)nc2ncccc12,,"human, liver microsomes",10 min,56.6
O=C1c2oc3cc(O)c(O)cc3c2C(=O)c2oc3cc(O)c(O)cc3c21,,"human, liver microsomes","1 h, pH 7.4",3.2
C[C@@H](c1ccn(Cc2ccc(OC(F)(F)F)cc2)n1)[C@](O)(Cn1cnnn1)c1ccc(F)cc1F,,"human, liver microsomes",,> 100
O=c1nc(NO)ccn1[C@@H]1O[C@H](CO)[C@@H](O)[C@H]1O,,"human, liver microsomes","30 min, pH 7.4",74
C=C(C)C(=O)Nc1ccc(-c2c(-c3ccc(Oc4nccc(C)n4)cc3)c3c(N)ncnc3n2C)cc1,,,,> 30
C=CC(=O)Nc1cc(Nc2nccc(-c3cn(C)c4ccccc34)n2)c(OCC(F)(F)F)nc1N(C)CCN(C)C,,liver microsomes,,> 100

# Some of these lines once more:
SMILES,test,system,conditions,IC50 [µM]
COc1ccc2c(c1OCc1ccccc1)C[C@@H](C(=O)O)N(c1nc3ccc(C#N)cc3o1)C2,,"human, liver microsomes","15 min, pH 7.4",> 50
Cc1c(NC(=O)c2ccc3c(c2)CC[C@@H]2C[C@@](O)(C(F)(F)F)CC[C@@]32Cc2ccccc2)ccc[n+]1[O-],,,,> 100
